Published values of several laboratories.
Every numbered part comes from another study and shows a few of its results, in no order. Positions count from the first letter of the parent shown.

Set 1
Target: Histone acetyltransferase KAT6A, winged helix 1, GST fusion (KAT6A, Homo sapiens, UniProt Q92794, residues 1-85)
Technique: protein binding microarray
Molecule type: double-stranded DNA, one strand shown
Medium: in vitro
Concentration: not given
Setting: 8-mer, flanks averaged, mean of 2 arrays, mostly near background
Reference: not given
Reading: higher = stronger binding
Construct (chain): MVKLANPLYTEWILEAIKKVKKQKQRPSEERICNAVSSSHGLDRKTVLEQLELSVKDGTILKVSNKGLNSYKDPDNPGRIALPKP
With `CAGGGGAG` the E-score was -0.00502.
For `CCGGCGGC`, the E-score was 0.484.
With `ATAGGTAC` the E-score was 0.0307.
The E-score of `CTCAAGCC` is reported as 0.0278.
`CCCGGCAG` gave an E-score of 0.125.
`CCCTACGG` gave an E-score of 0.299.
`CACGCGCG` has an E-score of 0.457.
The E-score of `GATATTTA` is reported as -0.0714.
For `AATAGTTA`, the E-score was 0.0166.
The E-score of `GCGCCCCC` is reported as 0.29.
For `TAAATGTA`, the E-score was -0.0968.
`CTCGTTCC` has an E-score of -0.0793.
`CAGTTTAA` gave an E-score of -0.0946.

Set 2
Target: ABI1, truncated, D143A, DHFR fusion (Arabidopsis thaliana)
Technique: DHFR PCA, deep sequencing
Medium: yeast
Setting: methotrexate growth selection, single substitutions
With: (+)-ABA 710 µM
Reference: wild-type fitted maximum
Reading: higher = stronger binding
Parent: PYL1, truncated, DHFR fusion (Arabidopsis thaliana); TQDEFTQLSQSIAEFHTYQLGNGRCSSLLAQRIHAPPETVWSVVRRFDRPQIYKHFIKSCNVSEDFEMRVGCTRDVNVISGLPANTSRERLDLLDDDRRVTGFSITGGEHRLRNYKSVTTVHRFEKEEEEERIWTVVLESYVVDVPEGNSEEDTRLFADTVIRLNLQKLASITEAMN; partner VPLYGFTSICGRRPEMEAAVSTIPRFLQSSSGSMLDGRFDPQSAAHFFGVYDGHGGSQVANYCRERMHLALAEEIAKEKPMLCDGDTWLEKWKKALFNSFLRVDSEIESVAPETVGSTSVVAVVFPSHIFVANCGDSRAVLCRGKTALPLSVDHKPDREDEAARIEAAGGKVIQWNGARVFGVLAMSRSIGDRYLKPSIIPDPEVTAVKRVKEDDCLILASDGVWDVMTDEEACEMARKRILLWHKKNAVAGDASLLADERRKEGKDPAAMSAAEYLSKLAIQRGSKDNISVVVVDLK
`D48A`: “relative binding score” 84.1%.
`Q19G` — result for “relative binding score”: 100%.
For `V43P`, “relative binding score” read 18%.
`S117V` — result for “relative binding score”: 11.9%.
Under “relative binding score”, `R163A` is recorded as 86.6%.
`V143M`: “relative binding score” 88.2%.
Under “relative binding score”, `T1P` is recorded as 99.7%.

Set 3
Target: CCNA1, cyclin fold, Cln2 fusion (human)
Technique: yeast growth competition, sequencing
Medium: yeast
Setting: weak parent motif
Reference: not given
Reading: higher = stronger binding
Parent: WEE1 docking peptide (human); HKTFRKLRLFDTP; partner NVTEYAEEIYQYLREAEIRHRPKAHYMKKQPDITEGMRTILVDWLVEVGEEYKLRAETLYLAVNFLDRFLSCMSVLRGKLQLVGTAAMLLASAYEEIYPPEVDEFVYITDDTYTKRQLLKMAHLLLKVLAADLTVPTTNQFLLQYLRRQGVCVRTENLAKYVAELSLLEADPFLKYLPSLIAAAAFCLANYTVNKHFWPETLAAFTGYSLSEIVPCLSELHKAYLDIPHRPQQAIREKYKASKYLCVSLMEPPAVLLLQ
`T12E`: “normalised enrichment score” 0.369.
`F10Y`: “normalised enrichment score” 0.215.
`K6M`: “normalised enrichment score” 0.000878.
`H1I` — result for “normalised enrichment score”: 0.632.
`D11F`: “normalised enrichment score” 0.448.
`R5A L7A` — result for “normalised enrichment score”: 0.217.
For `H1K`, “normalised enrichment score” read 0.424.
`T12W`: “normalised enrichment score” 0.163.
`F10Q`: “normalised enrichment score” -0.183.
`L9R` — result for “normalised enrichment score”: 0.175.

Mixed results
`PhoQ, residues 284 288 289 292 302 303 SIHMAM` gave a fold induction of 1.5 (PhoP, residues 12 14 15 18 19 YHFSH (Escherichia coli, UniProt P23836); Sort-seq, refers to: YFP reporter; E. coli; PhoQ-PhoP variant library, with: 10 µM Mg2+; reference: high Mg2+ state, higher = stronger signaling).

Repeated from above (set 2):
For `V43P`, “relative binding score” read 18%.
`S117V` — result for “relative binding score”: 11.9%.
Under “relative binding score”, `R163A` is recorded as 86.6%.
`V143M`: “relative binding score” 88.2%.
Under “relative binding score”, `T1P` is recorded as 99.7%.
